Published values gathered from unrelated publications.
± gives the spread as reported.

SMILES	assay	test system	conditions	scale	quantity	value
COc1c(OCCCN2CCOCC2)ccc2c1N=C(NC(=O)c1cnc(N)nc1)N1CCN=C21		human, mild hepatic impairment		baseline: normal hepatic function	decrease in clearance	19.2%
Cc1nc(C)c(-c2ccnc(Nc3ccc(Cl)cc3)n2)s1		octanol/buffer	pH 11		logP	4.23
CC(C)(C(=O)N1CCOc2c(C#N)cncc2C1)C(F)F	item: Nausea	human	oral, 10 mg, CSF pharmacokinetic cohort		subjects with adverse event	16.7%
FC(F)(F)c1ccc(CNc2ccc(Cc3c[nH]c4ncc(Cl)cc34)cn2)cn1		patients with advanced solid tumours	oral, 1000 mg/day, TGCT cohort, all grades		decreased appetite incidence	21%
CCNCCNC(=O)c1c(C)[nH]c(/C=C2\C(=O)Nc3ccc(F)cc32)c1C		human, serum	50 mg maintenance dose		serum concentration	27.7 ng/mL
CCn1c(C(=O)N(C2CC2)C2CC2)cc2c3c(ncn3C)c(Nc3cc(C)n(C)n3)nc21		cancer patients	oral, 200 mg twice daily, day 15, 340.0 h		plasma concentration	6350 ng/mL
COc1ccc([C@@H](O)c2cc(-c3ncnc4cc(N5CCOCC5)ccc34)c(F)cc2Cl)nn1		locally advanced rectal cancer patients	150 mg, added: capecitabine and radiotherapy		diarrhoea TEAE incidence	50%
CC(C)n1c(Nc2cccnc2)nc2cnc(Nc3ccc(N4CCN(C)CC4)cc3)nc21		human, male, plasma	oral, dose not given, added: gemfibrozil	baseline: without gemfibrozil	increase in AUC	~26%
COCCCC/C(=N\OCCN)c1ccc(C(F)(F)F)cc1	total metabolite formation, inhibitor	dog hepatocytes suspension	1 µM, 90 min, added: ropinirole 1 µM		inhibition	87%
Cc1cc(-c2nccc3c2ccn3CC(=O)Nc2ccc(-c3cnccn3)cn2)ccn1	item: AUCtau	human, plasma	oral, 5 mg once daily	baseline: day 16 over day 1	accumulation ratio	1.59
CCc1cc(C(=O)NC)c2nccc(N3CCc4c(cc(Cn5ccnc5)cc4-c4cn(C)nc4C(F)(F)F)C3=O)c2c1		Sprague Dawley rats	oral, 100 mg/kg twice daily, 7 days		haematocrit	43 ± 2.16%
O=C(COc1ccc(Cl)cc1)NC12CC(c3nnc([C@H]4C[C@@H](OC(F)(F)F)C4)o3)(C1)C2	item: Myalgia	healthy humans, both sexes	oral, dose not given, single ascending dose, fasted	baseline: subjects	treatment-emergent adverse events	5.6%
CN(CC#N)C(=O)C[C@H](Nc1nc2ccccc2[nH]1)c1cccc(C(F)(F)F)c1		human	intravenous infusion, 2 mg/kg, 10 mg/mL formulation		apparent clearance	10.9 ± 3.99 L/h
O=C(Nc1cnccc1Cl)N1CCN(Cc2ccc3c(c2)OC(F)(F)O3)CC1	multiple ascending dose	young men	10 mg, treatment-emergent adverse events		injection site pain incidence	0%
COc1cc(/C=C/C(=O)OC2C(O)CC(O)(C(=O)O)CC2O)ccc1O (stereo not drawn)		human, cerebrospinal fluid	concentration not given, median		CSF concentration	1.8 nM
Cn1cc(-c2cn3nccc3c(-c3cnn([C@]4(CC#N)C[C@@H](C#N)C4)c3)n2)cn1		healthy humans fasted, plasma	oral, 400 mg single dose, geometric mean		dose-normalised AUC(0-t)	6.9 ng·h/mL/mg
CCO		human	concentration not given		priapism incidence	11.1%
CCc1nc(C(N)=O)c(Nc2ccc(N3CCC(N4CCN(C)CC4)CC3)c(OC)c2)nc1NC1CCOCC1		Japanese patients, plasma	oral, 40 mg, cycle 1 day 28, multiple doses, mean		Cmax	123 ng/mL
O=C1CCc2ccc(OCCCCN3CCN(c4cccc(Cl)c4Cl)CC3)cc2N1		CYP2D6 ultrarapid metabolizers	concentration not given, genotype-based phenotype, long-acting oral or depot		gastrointestinal symptom frequency	5%
Cc1ccnc(NS(=O)(=O)c2ccc(NC(=O)c3cncc(Br)c3)cc2)n1		octanol/buffer	pH 11, known kinase inactives set		logP	-0.44
Cn1cnc2c(F)c(Nc3ccc(Br)cc3Cl)c(C(=O)NOCCO)cc21	population PK model	human, plasma	oral, sequential zero-first-order absorption, fasted		zero-order absorption duration	0.37 h

Some of these lines once more:
SMILES	assay	test system	conditions	scale	quantity	value
FC(F)(F)c1ccc(CNc2ccc(Cc3c[nH]c4ncc(Cl)cc34)cn2)cn1		patients with advanced solid tumours	oral, 1000 mg/day, TGCT cohort, all grades		decreased appetite incidence	21%
CCNCCNC(=O)c1c(C)[nH]c(/C=C2\C(=O)Nc3ccc(F)cc32)c1C		human, serum	50 mg maintenance dose		serum concentration	27.7 ng/mL
CCn1c(C(=O)N(C2CC2)C2CC2)cc2c3c(ncn3C)c(Nc3cc(C)n(C)n3)nc21		cancer patients	oral, 200 mg twice daily, day 15, 340.0 h		plasma concentration	6350 ng/mL
